# Assay results pooled from the literature.
# Every numbered part comes from another study and shows a few of its results, in no order.

# Set 1
# Target: RING finger protein unkempt homolog, zinc fingers 1-6, GST-SBP tag (UNK, Homo sapiens, UniProt Q9C0B0, residues 30-357)
# Method: RNA Bind-n-Seq
# Form: RNA
# Medium: in vitro
# Concentration: not given
# Setting: RNA with constant flanks, human and mouse sites, ends assumed
# Baseline: input RNA pool
# Reading: higher = stronger binding
# Target sequence (chain): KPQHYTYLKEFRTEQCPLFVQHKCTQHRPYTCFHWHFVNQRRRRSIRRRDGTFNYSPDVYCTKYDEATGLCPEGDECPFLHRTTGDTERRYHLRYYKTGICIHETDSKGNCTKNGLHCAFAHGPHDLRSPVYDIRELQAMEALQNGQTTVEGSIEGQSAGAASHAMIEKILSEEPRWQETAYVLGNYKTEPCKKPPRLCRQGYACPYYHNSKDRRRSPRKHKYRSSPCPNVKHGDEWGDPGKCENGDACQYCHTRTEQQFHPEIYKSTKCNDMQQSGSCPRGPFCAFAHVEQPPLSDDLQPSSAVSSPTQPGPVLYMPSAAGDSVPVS
Strand,bound/input enrichment [ratio]
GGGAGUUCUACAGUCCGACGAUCACAUUUGCCUUGCCUGAAGGACCACUUGGAAAUGAGAAGGAGGAGAUUAUCCAUAUCGCUGAGGAAGAAGCUGUCAUGGAGGAGGAGGAGGAUGAGGAGGAUGAGGAGGAGGAGGAUGAGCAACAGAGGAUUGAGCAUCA,0.734
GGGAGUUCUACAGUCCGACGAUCGUAUUGGUGAACAACGUGUUUUAUUUCACACAACGCGUAGUGGACAAGCUUUGGCAAGGCAUGUUCAACAAAGAAUCUAAACUUCUUAUAGAUUUUAUCAUUCAACUCAUUGCACAGUCGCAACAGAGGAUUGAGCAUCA,0.575
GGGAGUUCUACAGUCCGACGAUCAGGGAACGGGGCAUCGCGGUUCCAACGAUUAACUGCUGAAGUACUGAUCGAGUUCUGCAUUUCUUCAAUGAGGAACUACAGGCUGAUCUUCUGCCAUAAUCUCAAACAGCCAUAAAUGACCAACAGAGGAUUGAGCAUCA,0.0949
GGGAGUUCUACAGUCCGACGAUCAAGCAGGUCUGCGGAGAUUAUUUACUAUCUAGAAUGGAUGUUACUAGCUGCAUCUCUUACCGAAAUUUUGCAAGUUGUAUGGGAGACUCCCGUUUGUUGAAUAAAGUUGACGCUUAUAUUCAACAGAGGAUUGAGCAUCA,0.79
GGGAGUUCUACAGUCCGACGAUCUCAGGGGGCACGCUGAGUGGCGGCAUUCUCUCCAGUGGCAAGGGAAAAUAUAGCAGGUUAGAAGUUCAAGCCGAUGUCCAAAAGGAAAUUUUCCCCAAAGACACAGCCAGUCUUGGUGCACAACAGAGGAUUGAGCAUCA,0.256
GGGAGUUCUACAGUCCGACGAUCGCCUGAGGAACCAGCCAUGUCUCUGCUGCCCCUUCAGUGAUGCCAACCUUGGGAGAUGCCCUCAUCCUGUACCUGCAUCUGGUCCUGGGGGUGGCAGGAGUCCUCCAGCCACCAGGCCCCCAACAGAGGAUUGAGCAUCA,0.249
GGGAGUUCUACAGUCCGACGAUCCAUAUUAAAUAUGAUCCAGAAAUUAUUGGUCCCAGAGAUAUUAUCCAUACCAUCGGAAGCUUAGGCUUUGAAGCUUCUUUGGUCAAGAAAGAUCGAUCAGCCAACCACUUAGAUCAUAAACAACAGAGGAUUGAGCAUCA,0.397
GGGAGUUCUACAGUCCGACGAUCUCUCCCAUAACAAAUGAUGGGGAAGAUGAAUUUGUUCCUUCAGAUGGGUUAGAUAAAGAUGAAUAUACAUUUUCACCAGGCAAAUCAAAAGCCACUCCAGAAAAAUCUUUGCAUGACAAACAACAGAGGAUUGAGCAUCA,0.262

# Set 2
# Target: RNA binding protein fox-1 homolog 2, RRM domain, GST-SBP tag (RBFOX2, Homo sapiens, UniProt O43251-10, residues 100-194)
# Method: RNA Bind-n-Seq
# Form: RNA
# Medium: in vitro
# Concentration: 365 nM
# Setting: natural RNA segment, single round, ends assumed
# Baseline: no-protein control
# Reading: higher = stronger binding
# Target sequence (chain): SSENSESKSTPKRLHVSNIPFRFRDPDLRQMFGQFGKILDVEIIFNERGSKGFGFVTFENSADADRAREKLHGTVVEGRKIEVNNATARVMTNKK
Strand,RBNS enrichment (R)
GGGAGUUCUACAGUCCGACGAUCAGGAAGUACUGAGUGGCUGCACCGAGAAAGGACUUGGCUAGUAAGGUUAGAAUGUGCAUCGCGCAUAGCCGAGCAGCCUGCUAGCAGGUGACACACUCCGUGGGGGAGGCUGGAAUUCUCGGGUGCCAA,3.53
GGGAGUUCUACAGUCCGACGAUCGCUUUAAUCAGAAAAAGCCUCCACUUUCUGUAUUAUGUUAACAUUGGCUCAUGCAUAUAACUAUCUGCUGCUGAUGUAGUUCUCCAUCUUCAAGAUUUAGAGUGGGUUAAUGGAAUUCUCGGGUGCCAA,0.727
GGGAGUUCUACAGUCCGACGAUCAACAGUGGGGUAUGUGAUGGUUUUGGCAUGACAUCUUCAGUAUGAGGGGGACAGUUUGACUUCACUUUGAGGGUGUGAUGUCUGUAGCUAUGUGGAAGGUAAAAAUAGUGUGGAAUUCUCGGGUGCCAA,1.99
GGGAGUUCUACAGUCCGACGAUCUGUAUGGGGUAUGAGGAGAUAAUGAAAGAAAAGUGGUCCUCAUGCUGGAUAUGUGACUGUUUUGUUCUCUGUAAAGUGUAUUCUUGGGAAGUGAUUGGUUUAUAUCAGAUUGGAAUUCUCGGGUGCCAA,7.12
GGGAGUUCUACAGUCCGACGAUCGGUACAGCCUUUUUUUAAAAUAAAUUAAUCUAUAUUGGUUGACAAACAAGCCACCAACCACUGACUGCAAAACUGCCUGAUGCAGUUGGGUUCCUCCUGGUUUUCUUUUGUGGAAUUCUCGGGUGCCAA,0.472
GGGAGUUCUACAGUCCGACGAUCGAUUGAUUGCCUUUGGUCAGUAAUGCGUUCAGGAGUCCACACCAGGCACAGAUGGGGCCUUGAAACGCUUUGUCAUGCUUCUUCAGUACCAUGGAUUUGAAAUGAACUCAUGGAAUUCUCGGGUGCCAA,0.801
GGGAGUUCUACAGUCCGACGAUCGCCUUCUGGCCUCCAGCUGGGCCAGGAAGCAAGGUGGGAACACCUCCUCGGCCUUGAAGGCCCAAUGACAGGCCUUGCCUCAAGGCCUUUCCUUCUCAGAGCCUCCUGAAUGGAAUUCUCGGGUGCCAA,0.186
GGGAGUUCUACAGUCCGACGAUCUCCCGGCCCUUACCUUUCCUGAUGCCCCUGACAUCAUCAUUCUUGUGGGAGACAGCAGCCUGUAUGUGGUGUGGGGCGUGGAUCGAGUGUAGCUGUGAAAUCCAUAUAUAUGGAAUUCUCGGGUGCCAA,0.261

# Set 3
# Target: Centromere-binding protein 1, full length, His-tagged (CBF1, Saccharomyces cerevisiae, UniProt P17106, residues 1-351)
# UniProt P17106, sequence (whole entry, looked up): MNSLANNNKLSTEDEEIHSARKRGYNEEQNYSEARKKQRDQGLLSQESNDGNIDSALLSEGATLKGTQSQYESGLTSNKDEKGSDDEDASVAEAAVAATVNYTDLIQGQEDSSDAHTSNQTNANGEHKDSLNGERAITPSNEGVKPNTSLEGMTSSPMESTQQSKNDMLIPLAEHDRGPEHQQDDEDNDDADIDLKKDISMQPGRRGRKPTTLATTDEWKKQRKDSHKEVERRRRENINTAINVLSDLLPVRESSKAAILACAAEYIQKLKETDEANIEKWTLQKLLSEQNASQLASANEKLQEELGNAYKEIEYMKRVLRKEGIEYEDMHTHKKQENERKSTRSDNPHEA
# Method: competition protein-binding microarray
# Form: double-stranded DNA, one strand shown
# Medium: in vitro
# Concentration: 2 µM
# Setting: whole 60-bp probe, lowest competitor level
# With: Pho4 competitor, 0.05 µM
# Reading: higher = stronger binding
Strand,fluorescence intensity [a.u.]
TTATATTGTGTGAAGCACATGCCACACTTTCCAAAAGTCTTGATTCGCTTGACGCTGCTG,150
TGCGCAACAACTTTTCACGTGTCGTTATGTCTAGAAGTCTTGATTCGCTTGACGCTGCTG,862
CTCCATATGGTACTATCACTTCTGCAAAGGTTATGAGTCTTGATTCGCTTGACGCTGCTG,73.3
CGTCCTAGTGATTGGCCTGTGGGTGCCATGAGGAAGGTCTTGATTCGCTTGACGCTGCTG,86.4
CCCCTCCTGCCTACACGCATGCGGCTTTGATCCTTCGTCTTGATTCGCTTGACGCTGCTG,75.3
ATTAGTTCTGGTGCCATCGTGTCGGCTTTACCACAAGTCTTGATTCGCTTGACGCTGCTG,60.6
GTCCCCACCTCCTGTCACATGACAATTTTTGTTACTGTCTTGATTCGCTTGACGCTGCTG,2070
ACCCTGAGAATTGGCACCGTGACGGTATTGATTCCAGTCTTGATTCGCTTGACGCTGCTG,98.7
CATACCCAACCTTTTCACGTGCCATAAGATATTTGTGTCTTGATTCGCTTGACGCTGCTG,1550
CGGATATTCTTTCTTCACGTGCATCTACTGCTTTTTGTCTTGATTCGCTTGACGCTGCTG,1060
CATACCCAACCTTGCGCGGTGGGTGAAGATATTTGTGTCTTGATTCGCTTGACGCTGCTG,59.4
CTAACGAAGGTTTGACCAGTGGGTGACAAGCCAAGTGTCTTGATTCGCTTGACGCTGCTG,63.9
CATTGGTAATGTAACCACGTTTTGAGCCTGAAATGGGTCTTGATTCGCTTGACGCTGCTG,160
AAATTACTAAGTTGATGCGTGGGTGACGCCGTATGAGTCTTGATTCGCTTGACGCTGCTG,68.3
AAACAGAGCAACCATCACGTGCAAAAAGAACTACGAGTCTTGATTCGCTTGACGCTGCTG,4150
GTCCAACAAGTATAACAGGTGATACACATAGAAAGAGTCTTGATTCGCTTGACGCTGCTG,204
CTTTCCCGATCTTGCGACGTGGGTGTAGCACATTTGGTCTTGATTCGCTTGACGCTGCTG,75
CGCAGTATATCGTTACGCGTGAGGAGGATCTGCGCTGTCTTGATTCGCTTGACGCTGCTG,69.9
GGACCCGGCCCCGCGCACGCGGACTCCGGGACTACAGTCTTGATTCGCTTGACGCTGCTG,56.9

# Set 4
# Target: Fragile X messenger ribonucleoprotein 1, C-terminal low-complexity region (Fmr1, Mus musculus, UniProt P35922)
# Method: RNA Bind-n-Seq
# Form: RNA
# Medium: in vitro
# Concentration: 200 nM
# Setting: whole 134-nt RNA, ends assumed
# With: 150 mM KCl
# Baseline: input library
# Reading: higher = stronger binding
Strand,log2 enrichment
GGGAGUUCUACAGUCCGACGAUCUUGUUUUUUUUUUGUUCUUUUUUUCCAUGUCACUAAAGGCCCUCGGGACCAAGGAUCACGUCAUGACUCCGGUGAGUUCACACGUGGUGGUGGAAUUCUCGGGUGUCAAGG,0.056
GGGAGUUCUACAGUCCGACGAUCAGUCCUGUGCUACACAUCGUAUGUACCGAAUCAAACCCCCCCAAACCCAAACCCAAAAAAGUAUUAUGUUACGCCGUUCGGAUCUGCACUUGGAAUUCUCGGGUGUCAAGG,-0.0668
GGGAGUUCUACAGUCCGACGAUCCAAGUCCUGUGCUACACAUCGUAUGUACCGAAUCGGGAAAAAAAGGGUGGGUGGGAAAGUAUUAUGUUACGCCGUUCGGAUCUGCACUUCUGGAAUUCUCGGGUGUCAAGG,1.1
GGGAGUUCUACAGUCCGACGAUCUGUGCUACACAUCGUAUGUACCGAAUCGGGAAAAAAAGGGGAAAAAAAGGGAAAAAAAGGGGAAAGUAUUAUGUUACGCCGUUCGGAUCUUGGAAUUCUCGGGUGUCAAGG,-0.16
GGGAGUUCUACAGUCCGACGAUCCCUGUGCUACACAUCGUAUGUACCGAAUCGGGGUUUUUUGGGGUUUUUUGGGUUUUUUGGGAAAGUAUUAUGUUACGCCGUUCGGAUCUGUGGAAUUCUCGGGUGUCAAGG,-0.412
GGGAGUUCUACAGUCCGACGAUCCAAGUCCUGUGCUACACAUCGUAUGUACCGAAUCGGUUUUUUUGGUUUUUGGUGGAAAGUAUUAUGUUACGCCGUUCGGAUCUGCACUUCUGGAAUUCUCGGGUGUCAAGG,-0.564
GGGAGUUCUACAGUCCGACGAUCCACAGACAACACGCACCCACACAGACACAGAGGGAAGGGGUUGGAAAGGGGACAGGGUGCACAGCAGGGCGGGGUAGGACCCCAGCCCCUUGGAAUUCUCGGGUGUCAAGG,1.11
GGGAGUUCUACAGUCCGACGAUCCACAGACAACACGCACCCACACAGAGACAGAGGGAAGGGGUUGGGAUGGGGACAGGGUGCACAGCAGGGCGGGGUAGGACCCCAGCCCCUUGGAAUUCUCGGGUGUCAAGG,1.23
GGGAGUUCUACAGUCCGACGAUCGCAGGAAGUAAAAACAAAUGGAAAUGCUUCGGAUAGUGGCAGGGGAGGGGGUUGCUAAGGAAAGGGUGGGAUGGGAGUGGGUAAAGAGUUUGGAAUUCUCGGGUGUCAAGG,0.0666

# Excerpt of the above (set 3):
Strand,fluorescence intensity [a.u.]
CATACCCAACCTTTTCACGTGCCATAAGATATTTGTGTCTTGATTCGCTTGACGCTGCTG,1550
AAATTACTAAGTTGATGCGTGGGTGACGCCGTATGAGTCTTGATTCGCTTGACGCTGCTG,68.3
